Measurements gathered from unrelated publications.
Protocols differ between the studies behind these lines. Values joined by “and” are separate records of one study, mostly repeats; a detail may differ. ± gives the spread as reported.

Compound | target or system | assay | test system | setting | scale | endpoint | value
N#Cc1ccc(Oc2ccc(Cl)cc2Cl)c(O)c1 | Vero | cytotoxicity | – | – | – | IC50 | 4 µg/mL
CC(=O)NCCCC[C@@H]1NC(=O)[C@H](Cc2c[nH]c3c(C)cccc23)NC(=O)[C@H]([C@@H](C)O)NC(=O)[C@H](CC(N)=O)NC(=O)[C@@H](NC(C)=O)C(C)(C)SSC(C)(C)[C@@H](C(=O)N[C@@H](Cc2ccc(OCCN)cc2)C(=O)N[C@@H](Cc2ccc3ccccc3c2)C(=O)NC2(C(=O)N[C@@H](CCC(=O)O)C(=O)N[C@@H](CC(N)=O)C(=O)N[C@@H](Cc3cccnc3)C(=O)N(C)CC(N)=O)CCOCC2)NC1=O | human alpha-1-acid glycoprotein 0.07% | equilibrium dialysis | – | 0.1 µM | – | fraction unbound | 89.4 ± 1.9%
CNC(=O)C[C@H](Cc1ccc(F)cc1)NC(=O)[C@@H](Cc1ccc(Cl)cc1Cl)NC(=O)[C@H](N)Cc1ccccc1C#N | HEK-293T | LC-MS, digitonin-released cytosol | – | 10 µM, 4 h | – | cytosolic concentration | 17.7 µM and 8.4 µM and 15.9 µM
CCN(CCCCOc1ccc(CCC(=O)N2CCC(Cc3ccccc3)CC2)cc1OC)Cc1ccccc1 | Caco-2 monolayer | – | – | 10 µM, 120 min | – | Papp(B-A) | 13.3 ± 1.29 ×10⁻⁶ cm/s
CN1CC[C@]23c4c5ccc(O)c4O[C@H]2[C@H](O)C=C[C@@]3(O)[C@H]1C5 | – | – | – | phenolate protonated | – | log k amino protonation | 9.07
CN(C)c1ccc(-c2nc3ccccc3n2CCCOc2ccccc2)cc1 | HEK-293T | cytotoxicity | – | 3 days | – | IC50 | > 10 µM
O=C1NC2(CC2)COc2ncc(F)cc2[C@H]2COCCN2c2ccn3ncc1c3n2 | – | – | Sprague-Dawley rat, male, blood | oral, 2.5 mg/kg/day, end of treatment, 4-week repeated-dose toxicity | reference: leukocytes | neutrophils | 18.5 ± 6.2%
Cc1sc2c(c1C)C(c1ccc(Cl)cc1)=N[C@@H](CC(=O)OC(C)(C)C)c1nnc(C)n1-2 | – | – | CD1 mouse, male, plasma | oral, 10 mg/kg | – | half-life | 1.39 h
O=C1CC[C@@]2(O)[C@H]3Cc4ccc(O)c5c4[C@@]2(CCN3CC2CCC2)[C@H]1O5 | – | – | – | phenolate protonated | – | log k amino protonation | 9.02
Cc1nc2cccc(OCC(C)(C)C(=O)NC(C)C)c2c(N)c1C(=O)[O-].[Na+] | Salmonella typhimurium | – | TA1537 | 0.80 mg per plate, with S9, preincubation | – | revertant colonies per plate | 15 ± 1
Oc1ccc2c3c1OC1C(O)C=CC4C(C2)N(CC2CCC2)CCC341 (stereo not drawn) | – | – | – | – | – | log k amino protonation | 9.2
Cc1ccc(NS(=O)(=O)c2c(C(=O)N3CCCCCC3)c(C)n(C)c2C)c(Cl)c1 | CV-1 | – | African green monkey cells | 100 µM, 60 (unit not given) | – | viability | 102% and 94.2%

Some of these lines once more:
Compound | target or system | assay | test system | setting | scale | endpoint | value
Cc1sc2c(c1C)C(c1ccc(Cl)cc1)=N[C@@H](CC(=O)OC(C)(C)C)c1nnc(C)n1-2 | – | – | CD1 mouse, male, plasma | oral, 10 mg/kg | – | half-life | 1.39 h
O=C1CC[C@@]2(O)[C@H]3Cc4ccc(O)c5c4[C@@]2(CCN3CC2CCC2)[C@H]1O5 | – | – | – | phenolate protonated | – | log k amino protonation | 9.02
